Published values from different studies.
Each line is one published result; not all experiments were run side by side.
Organism: Acinetobacter baumannii

`CC1(C)S[C@@H]2[C@H](NC(=O)[C@H](C(=O)O)c3ccsc3)C(=O)N2[C@H]1C(=O)O` has an MIC of > 64 µg/mL (carbapenem-resistant clinical isolate).
`CCCCCCCC(=O)N[C@@H](CCCNC(=N)N)C(=O)N[C@@H](CCCNC(=N)N)C(=O)N[C@@H](CCCNC(=N)N)C(=O)N[C@@H](CCCNC(=N)N)C(=O)N[C@H](C(=O)N[C@@H](CC(C)C)C(=O)N[C@H](C(=O)N[C@@H](CCCCN)C(=O)N[C@@H](CCCCN)C(=O)N[C@H](C(=O)N[C@@H](CC(C)C)C(=O)N[C@@H](CCCCN)C(=O)N[C@@H](CC(C)C)C(=O)N[C@@H](CCCCN)C(=O)N[C@@H](CO)C(=O)N[C@@H](CO)C(=O)N[C@@H](C)C(=O)N[C@@H](Cc1ccc(O)cc1)C(N)=O)C(C)C)[C@@H](C)CC)[C@@H](C)CC` gave an MIC of 4 µM (broth microdilution; ATCC 17978; highest value reported).
The MIC of `CC[C@H](C)[C@H](NC(=O)CNC(=O)[C@H](CC(=O)O)NC(=O)[C@H](CCCNC(=N)N)NC(=O)[C@@H](NC(=O)[C@H](CC(N)=O)NC(=O)[C@H](CCCNC(=N)N)NC(=O)CNC(=O)[C@@H](NC(=O)[C@H](CCCCN)NC(=O)[C@H](CCC(=O)O)NC(=O)[C@@H](NC(=O)[C@H](CCCCN)NC(=O)[C@H](CCC(=O)O)NC(=O)[C@H](Cc1ccccc1)NC(=O)[C@@H](NC(=O)[C@H](CCCCN)NC(=O)[C@H](Cc1c[nH]c2ccccc12)NC(=O)[C@@H](N)CCCNC(=N)N)[C@@H](C)CC)[C@@H](C)CC)C(C)C)C(C)C)C(=O)N[C@H](C(=O)N[C@@H](CCCCN)C(=O)N[C@@H](C)C(=O)NCC(=O)N1CCC[C@H]1C(=O)N[C@@H](C)C(=O)N[C@H](C(=O)N[C@@H](C)C(=O)N[C@H](C(=O)N[C@H](C(=O)NCC(=O)N[C@@H](CCC(N)=O)C(=O)N[C@@H](C)C(=O)N[C@@H](C)C(=O)N[C@H](C(=O)N[C@H](C(=O)N[C@H](C(=O)N[C@@H](CCCCN)C(N)=O)C(C)C)C(C)C)[C@@H](C)O)C(C)C)C(C)C)C(C)C)[C@@H](C)CC` is reported as > 64 µM (KCCM 40203, Mueller-Hinton broth; 16 h, 37 °C; growth inhibition over 99%).
For `CC[C@H](C)[C@H](NC(=O)[C@H](CC(C)C)NC(=O)[C@H](CCCNC(=N)N)NC(=O)[C@H](CCCNC(=N)N)NC(=O)[C@H](CCCNC(=N)N)NC(=O)[C@H](CCCNC(=N)N)NC(=O)[C@H](CC(C)C)NC(=O)[C@@H](NC(=O)[C@@H](NC(=O)[C@@H](NC(=O)[C@H](CC(C)C)NC(=O)[C@H](CCCNC(=N)N)NC(=O)[C@H](CO)NC(=O)[C@@H](N)CO)C(C)C)[C@@H](C)CC)[C@@H](C)CC)C(=O)N[C@@H](CO)C(=O)N[C@@H](CCCNC(=N)N)C(=O)N[C@@H](CCCNC(=N)N)C(=O)N[C@@H](CCCNC(=N)N)C(=O)N[C@@H](CCCNC(=N)N)C(N)=O`, the MIC was 1 µM (broth microdilution; ATCC 17978; highest value reported).
Under MIC, `CCCCCCCCCC(=O)N[C@@H](Cc1c[nH]c2ccccc12)C(=O)N[C@H](CC(N)=O)C(=O)N[C@@H](CC(=O)O)C(=O)N[C@@H]1C(=O)NCC(=O)N[C@@H](CCCN)C(=O)N[C@@H](CC(=O)O)C(=O)N[C@H](C)C(=O)N[C@@H](CC(=O)O)C(=O)NCC(=O)N[C@H](CO)C(=O)N[C@@H]([C@H](C)CC(=O)O)C(=O)N[C@@H](CC(=O)c2ccccc2N)C(=O)O[C@@H]1C` is recorded as “inactive” (broth dilution; ATCC 19606).
The MIC of `CC[C@H](C)[C@H](NC(=O)CNC(=O)[C@H](CC(=O)O)NC(=O)[C@H](C)NC(=O)[C@@H](NC(=O)[C@H](CC(N)=O)NC(=O)[C@H](CCCNC(=N)N)NC(=O)CNC(=O)[C@@H](NC(=O)[C@H](CCCCN)NC(=O)[C@H](CCC(=O)O)NC(=O)[C@@H](NC(=O)[C@H](CCCCN)NC(=O)[C@H](CCCCN)NC(=O)[C@H](Cc1ccccc1)NC(=O)[C@@H](NC(=O)[C@H](CCCCN)NC(=O)[C@H](Cc1c[nH]c2ccccc12)NC(=O)[C@@H](N)CCCNC(=N)N)[C@@H](C)CC)[C@@H](C)CC)C(C)C)C(C)C)C(=O)N[C@H](C(=O)N[C@@H](CCCCN)C(=O)N[C@@H](C)C(=O)NCC(=O)N1CCC[C@H]1C(=O)N[C@@H](C)C(=O)N[C@H](C(=O)N[C@@H](C)C(=O)N[C@H](C(=O)N[C@H](C(=O)NCC(=O)N[C@@H](CCC(N)=O)C(=O)N[C@@H](C)C(=O)N[C@@H](C)C(=O)N[C@H](C(=O)N[C@H](C(=O)N[C@H](C(=O)N[C@@H](CCCCN)C(N)=O)C(C)C)C(C)C)[C@@H](C)O)C(C)C)C(C)C)C(C)C)[C@@H](C)CC` is reported as 4 µM (KCCM 40203, Mueller-Hinton broth; 16 h, 37 °C; growth inhibition over 99%).
For `CC[C@H](C)[C@H](NC(=O)[C@H](CCCCN)NC(=O)[C@H](CCCCN)NC(=O)[C@H](Cc1ccccc1)NC(=O)[C@@H](NC(=O)[C@@H](NC(=O)[C@H](CCCNC(=N)N)NC(=O)[C@H](Cc1ccccc1)NC(=O)[C@@H](NC(=O)[C@H](CCCCN)NC(=O)[C@H](CCCCN)NC(=O)[C@@H](N)CCSC)[C@@H](C)CC)C(C)C)[C@@H](C)CC)C(=O)N[C@@H](CC(C)C)C(=O)N[C@@H](CCCCN)C(=O)N[C@@H](CCCNC(=N)N)C(=O)N[C@@H](CC(C)C)C(=O)N[C@H](C(=O)N[C@H](C(=O)O)C(C)C)[C@@H](C)CC`, the MIC was 8 µg/mL (ATCC 19606; 16 to 18 h).
For `CC(=O)N[C@@H](CCCCN)C(=O)N[C@@H](CC(C)C)C(=O)N[C@@H](CC(C)C)C(=O)N[C@@H](CCCCN)C(=O)N[C@@H](CC(C)C)C(=O)N[C@@H](CC(C)C)C(=O)N[C@@H](CCCCN)C(=O)N[C@@H](CCCCN)C(=O)N1CCC[C@H]1C(=O)N[C@@H](CC(C)C)C(=O)N[C@@H](CCCCN)C(=O)N[C@@H](CC(C)C)C(N)=O`, the MIC was > 80 µM (broth microdilution; ATCC 17978; 18 h, 37 °C, compound alone).
With `CC[C@H](C)[C@H](NC(=O)[C@H](CC(C)C)NC(=O)[C@H](CCCNC(=N)N)NC(=O)[C@@H](N)CCCNC(=N)N)C(=O)N[C@@H](CCCNC(=N)N)C(=O)N[C@H](C(=O)N[C@@H](CC(=O)O)C(=O)N[C@H](C(=O)NCC(=O)N1CCC[C@H]1C(=O)N[C@H](C(=O)N[C@H](C(=O)N[C@@H](Cc1ccc(O)cc1)C(=O)N[C@@H](CC(=O)O)C(=O)N[C@@H](Cc1ccc(O)cc1)C(=O)N[C@@H](Cc1ccccc1)C(=O)N[C@@H](CCCCN)C(=O)N[C@@H](CC(=O)O)C(=O)N[C@@H](CCC(N)=O)C(=O)N[C@@H](CC(C)C)C(=O)N[C@@H](CC(C)C)C(=O)N[C@@H](CCCCN)C(=O)N[C@@H](CCCCN)C(N)=O)[C@@H](C)CC)[C@@H](C)CC)[C@@H](C)O)[C@@H](C)O` the MIC was 64 µM (ATCC BAA1605, Mueller-Hinton broth; 24 h).
`CC[C@H](C)[C@H](NC(=O)[C@H](CC(C)C)NC(=O)[C@H](CCCCN)NC(=O)[C@@H](NC(=O)[C@H](C)NC(=O)[C@H](CCC(=O)O)NC(=O)[C@H](Cc1c[nH]cn1)NC(=O)[C@@H](NC(=O)[C@H](CCCCN)NC(=O)[C@H](CCC(N)=O)NC(=O)[C@H](Cc1ccccc1)NC(=O)[C@@H](N)C(C)C)[C@@H](C)CC)[C@@H](C)CC)C(N)=O` has an MIC of > 128 µM (CLSI broth microdilution; ATCC 19606; 18 h, 37 °C).
For `CC[C@H](C)[C@H](NC(=O)CNC(=O)[C@H](CC(=O)O)NC(=O)[C@H](CCCNC(=N)N)NC(=O)[C@@H](NC(=O)[C@H](CC(N)=O)NC(=O)[C@H](CCCNC(=N)N)NC(=O)CNC(=O)[C@@H](NC(=O)[C@H](CCCCN)NC(=O)[C@H](CCC(=O)O)NC(=O)[C@@H](NC(=O)[C@H](CCCCN)NC(=O)[C@H](CCCCN)NC(=O)[C@H](Cc1ccccc1)NC(=O)[C@@H](NC(=O)[C@H](CCCCN)NC(=O)[C@H](Cc1c[nH]c2ccccc12)NC(=O)[C@@H](N)CCCNC(=N)N)[C@@H](C)CC)[C@@H](C)CC)C(C)C)C(C)C)C(=O)N[C@H](C(=O)N[C@@H](CCCCN)C(=O)N[C@@H](C)C(=O)N1CCC[C@H]1C(=O)N1CCC[C@H]1C(=O)N[C@@H](C)C(=O)N[C@H](C(=O)N[C@@H](C)C(=O)N[C@H](C(=O)N[C@H](C(=O)NCC(=O)N[C@@H](CCC(N)=O)C(=O)N[C@@H](C)C(=O)N[C@@H](C)C(=O)N[C@H](C(=O)N[C@H](C(=O)N[C@H](C(=O)N[C@@H](CCCCN)C(N)=O)C(C)C)C(C)C)[C@@H](C)O)C(C)C)C(C)C)C(C)C)[C@@H](C)CC`, the MIC was 4 µM (KCCM 40203, Mueller-Hinton broth; 16 h, 37 °C; growth inhibition over 99%).
The MIC of `CC[C@H](C)[C@H](NC(=O)[C@H](CC(C)C)NC(=O)[C@H](CCCNC(=N)N)NC(=O)[C@@H](N)CCCNC(=N)N)C(=O)N[C@@H](CCCNC(=N)N)C(=O)N[C@@H](CCCCN)C(=O)N[C@@H](CC(C)C)C(=O)N[C@@H](CCCCN)C(=O)NCC(=O)N1CCC[C@H]1C(=O)N[C@@H](CCCCN)C(=O)N[C@H](C(=O)N[C@@H](Cc1ccc(O)cc1)C(=O)N[C@@H](CC(C)C)C(=O)N[C@@H](Cc1ccc(O)cc1)C(=O)N[C@@H](Cc1ccccc1)C(=O)N[C@@H](CCCCN)C(=O)N[C@@H](CC(C)C)C(=O)N[C@@H](CCC(N)=O)C(=O)N[C@@H](CC(C)C)C(=O)N[C@@H](CC(C)C)C(=O)N[C@@H](CCCCN)C(=O)N[C@@H](CCCCN)C(N)=O)[C@@H](C)CC` is reported as 8 µM (ATCC BAA1605, Mueller-Hinton broth; 24 h).
With `CC[C@H](C)[C@H](NC(=O)[C@H](CCCCN)NC(=O)[C@@H](NC(=O)[C@@H](NC(=O)[C@H](CC(C)C)NC(=O)[C@H](CCCNC(=N)N)NC(=O)[C@@H](NC(=O)[C@H](CC(C)C)NC(=O)[C@H](CCCNC(=N)N)NC(=O)CNC(=O)[C@H](Cc1ccccc1)NC(=O)[C@@H](N)CCCNC(=N)N)[C@@H](C)CC)[C@@H](C)CC)C(C)C)C(=O)N[C@@H](C)C(=O)N[C@@H](CCCNC(=N)N)C(=O)N[C@@H](CCCNC(=N)N)C(=O)N[C@@H](C)C(=O)N[C@@H](Cc1c[nH]cn1)C(=O)N[C@@H](CCCNC(=N)N)C(=O)N[C@@H](C)C(=O)N[C@@H](CCCNC(=N)N)C(=O)N[C@@H](CO)C(=O)N[C@@H](C)C(=O)N[C@H](C(=O)N[C@@H](CCCCN)C(=O)N[C@@H](C)C(=O)N[C@@H](C)C(=O)N[C@@H](CO)C(=O)N[C@@H](CC(N)=O)C(=O)N[C@H](C(=O)N[C@@H](C)C(=O)N[C@@H](CCC(=O)O)C(=O)N[C@@H](CC(C)C)C(=O)N[C@@H](C)C(=O)N[C@@H](Cc1c[nH]cn1)C(=O)NCC(=O)N[C@@H](CCC(=O)O)C(=O)O)C(C)C)C(C)C` the MIC was ≤ 0.063 µM (bacterial growth, broth microdilution; cation-adjusted Mueller Hinton broth; 18 h, 37 °C).
`CC[C@H](C)[C@H](NC(=O)[C@H](CC(C)C)NC(=O)[C@H](CCCNC(=N)N)NC(=O)[C@@H](N)CCCNC(=N)N)C(=O)N[C@@H](CCCNC(=N)N)C(=O)N[C@@H](CCCCN)C(=O)N[C@@H](CC(C)C)C(=O)N[C@@H](CCCCN)C(=O)NCC(=O)N1CCC[C@H]1C(=O)N[C@H](C(=O)N[C@H](C(=O)N[C@@H](Cc1ccc(O)cc1)C(=O)N[C@@H](CC(C)C)C(=O)N[C@@H](Cc1ccc(O)cc1)C(=O)N[C@@H](Cc1ccccc1)C(=O)N[C@@H](CCCCN)C(=O)N[C@@H](CC(C)C)C(=O)N[C@@H](CCC(N)=O)C(=O)N[C@@H](CC(C)C)C(=O)N[C@@H](CC(C)C)C(=O)N[C@@H](CCCCN)C(=O)N[C@@H](CCCCN)C(N)=O)[C@@H](C)CC)[C@@H](C)CC` gave an MIC of 32 µM (KCCM 40203, Mueller-Hinton broth; 24 h).
`N=C(N)NCCC[C@H](NC(=O)CCCCCNC(=O)[C@H](CCCNC(=N)N)NC(=O)[C@H](CCCNC(=N)N)NC(=O)CCCCCNC(=O)[C@H](CCCNC(=N)N)NC(=O)[C@H](CCCNC(=N)N)NC(=O)CCCCCNC(=O)[C@H](CCCNC(=N)N)NC(=O)[C@H](CCCNC(=N)N)NC(=O)CCCCCNC(=O)[C@@H](N)CCCNC(=N)N)C(=O)NCCCCCC(=O)NCCC(=O)O` gave an MIC of 192 µM (broth microdilution; ATCC 19606, Mueller-Hinton broth).
